Assay results of several laboratories.
Parts stem from different laboratories: compare values within a part only. Positions count from the first letter of the parent shown.

Study 1
Target: ABI1, truncated, D143A, DHFR fusion (Arabidopsis thaliana)
Method: DHFR PCA, deep sequencing
Sample: yeast
Notes: methotrexate growth selection, single substitutions
With: (+)-ABA 0.032 µM
Baseline: wild-type fitted maximum
Reading: higher = stronger binding
Endpoint: relative binding score
Starting sequence: PYL1, truncated, DHFR fusion (Arabidopsis thaliana); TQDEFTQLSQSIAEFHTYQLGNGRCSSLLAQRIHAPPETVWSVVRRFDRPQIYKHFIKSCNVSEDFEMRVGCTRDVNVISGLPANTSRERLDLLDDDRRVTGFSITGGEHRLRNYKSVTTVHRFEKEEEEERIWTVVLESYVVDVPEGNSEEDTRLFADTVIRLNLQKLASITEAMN; partner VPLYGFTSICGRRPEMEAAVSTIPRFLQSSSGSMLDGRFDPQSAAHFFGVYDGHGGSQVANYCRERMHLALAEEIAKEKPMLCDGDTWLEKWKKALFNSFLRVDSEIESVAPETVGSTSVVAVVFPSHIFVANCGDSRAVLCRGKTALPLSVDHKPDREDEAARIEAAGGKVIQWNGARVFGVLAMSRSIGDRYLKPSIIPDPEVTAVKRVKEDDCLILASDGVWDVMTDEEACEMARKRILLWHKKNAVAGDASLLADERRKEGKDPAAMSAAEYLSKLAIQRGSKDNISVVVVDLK
Y53W: 46.6%
S140D: -1.47%
Y115V: -0.0431%
V76Y: 5.43%
R24Y: 24.2%
V70S: -0.365%
S150G: 0.21%
I52F: 1.72%
V44N: -0.545%
L91W: -3.88%
R24P: -0.287%
E127N: 41.7%
T106C: 12.3%
V136G: -1.69%
V143P: -3.13%
T73I: 40.9%

Study 2
Target: CCND1, cyclin fold, Cln2 fusion (human)
Method: yeast growth competition, sequencing
Sample: yeast
Notes: weak parent motif
Baseline: not given
Reading: higher = stronger binding
Endpoint: normalised enrichment score
Starting sequence: BRCA2 docking peptide (human); PSIKRNLLNEFDR; partner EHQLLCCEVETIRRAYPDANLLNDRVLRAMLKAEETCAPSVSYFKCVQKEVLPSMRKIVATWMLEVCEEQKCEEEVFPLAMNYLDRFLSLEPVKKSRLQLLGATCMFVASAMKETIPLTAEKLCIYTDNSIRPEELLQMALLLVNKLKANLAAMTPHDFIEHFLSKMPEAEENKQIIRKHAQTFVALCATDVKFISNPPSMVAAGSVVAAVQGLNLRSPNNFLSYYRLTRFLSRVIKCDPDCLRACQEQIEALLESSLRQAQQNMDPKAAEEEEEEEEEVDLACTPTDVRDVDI
S2N: 0.22
R5A: 0.349
L8G: -0.725
L7Y: 0.15
L8K: 0.164
E10P: 0.338
D12M: 0.751
R5N: 0.209
R5T: -0.468
S2W: 0.0859
R5L: 0.015
N6D: -0.00244
R13F: 0.541
I3Q: -0.54
S2E: -0.0137

Study 3
Target: RNA binding protein fox-1 homolog 2, RRM domain, GST-SBP tag (RBFOX2, Homo sapiens, UniProt O43251-10, residues 100-194)
Method: RNA Bind-n-Seq
Molecule type: RNA
Sample: in vitro
Concentration: 365 nM
Notes: natural RNA segment, single round, ends assumed
Baseline: no-protein control
Reading: higher = stronger binding
Endpoint: RBNS enrichment (R)
Shared flanks, not repeated: GGGAGUUCUACAGUCCGACGAUC … UGGAAUUCUCGGGUGCCAA
Construct (chain): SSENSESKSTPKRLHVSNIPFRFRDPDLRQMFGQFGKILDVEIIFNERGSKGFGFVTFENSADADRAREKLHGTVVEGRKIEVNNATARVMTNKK
UCCAAUUACAACUCUGCACUGGAUGUGAAGAAGCAAAAACUAUUCCGUCUACUCACAGAACAGUACUUUCUGGAAUAUUAUGGGGGAUUGUACCAAAACAAGAACCACUU: 0.303
CUGUUUUGAGAAGCAGUGGUUGGGGCAUUUUUAAGAUGGCUGGCUACUCUUGUUUUCCCUCAUGAUAAUAAAUUUGUCAUAACUCAGUAACAUGAACUUGCCCCUAGAGG: 0.441
CAGUUUUGUUUUCUGGGUUUCUUCCCCCUUUGUAGGAAUCAGAUACCUUUUGUAGAAAAAAAUGGCUUAUGCCACGUAAAGGUGAAUUUUUAGAAACCACCUUCUAGGCG: 0.659
CCCUCUGCAGGCCGACGGCAGGAGGACAGUCGGGUGAUGGUGUAUUCUGCCCUGCGCAUCCCACCCGAGGACUGAGGGAACCUAGGGGGGACCCCUGGGCCUGGGGUGCC: 0.797
GGGUGGGGGUCAUUCAGCUCGAAUGGGUCCCAGAUGCUCACUUGGCCUUUCCCUGCAGGAUGAGUGAAGACGUUUGCCUCUCACAGUGUGUCUUCUACCUGCAUUUUGGC: 0.316
UAAAUGUCUAGGCUUCCAUUUAAAACUACACAAAUGACUUGGGAUCUUUUUAGCACUAAGGAAUUUGAUUUCAGCCUUCCAGCUGUUGCUGUGAGUUGUUCCAGACCUUU: 0.393
UGGAUAUUCUUGAUUCUUAGUUCAAAAAAGUUAUUUUGUCAAUAAAACAUGCUUAAAGGAGUAACUAGGAGGGUAAAGCAGUUACAGCUUAGUGAUACAAAUACAUUUCU: 0.634
AACAGGCGAGCUCCUGAGGGCUCUCCAAGGCUGCAGACUGAGGUCCUUGAGUGCCCAGGCUUGAAGCACAUUGGCUGUCAUUCUGAUGUGACUCGAGAUUGCAGUUGCAA: 0.346

Study 4
Target: Runt-related transcription factor 3, Runt domain (RUNX3, Homo sapiens, UniProt Q13761, residues 53-186)
Sequence of UniProt Q13761 (53-186, looked up): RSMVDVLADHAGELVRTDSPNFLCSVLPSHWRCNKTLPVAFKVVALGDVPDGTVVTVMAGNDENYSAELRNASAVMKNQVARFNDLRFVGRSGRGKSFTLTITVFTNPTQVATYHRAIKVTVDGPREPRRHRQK
Method: protein-binding microarray
Molecule type: hairpin DNA
Sample: in vitro
Concentration: not given
Notes: whole hairpin DNA, median over replicate spots
Baseline: not given
Reading: higher = stronger binding
Endpoint: median fluorescence
CTCAGTTCTGTGGGCTGGACTCCTGTCCAGCCCACAGAACTGAGACACTC: 4250 a.u.
CTCAGTTCTCGGGGCTGGACTCCTGTCCAGCCCCGAGAACTGAGACACTC (5mC at 10 34): 4150 a.u.
CTCAGTTCTGTGGGATGGACTCCTGTCCATCCCACAGAACTGAGACACTC: 3810 a.u.
GAGGCCCGTTGTGGTTGGCCTCCTGGCCAACCACAACGGGCCTCACACTC: 5800 a.u.
GAGGCCTTTTGTGGTTGGCCTCCTGGCCAACCACAAAAGGCCTCACACTC: 5110 a.u.
GAGGCCCAACCGCACCAGCCTCCTGGCTGGTGCGGTTGGGCCTCACACTC: 7030 a.u.
CTCAGTTCTGTCGGCTGGACTCCTGTCCAGCCGACAGAACTGAGACACTC: 4430 a.u.
GAGGCCCCGCCGCAACAGCCTCCTGGCTGTTGCGGCGGGGCCTCACACTC: 6270 a.u.
GAGGCCCAACCGCAACCGCCTCCTGGCGGTTGCGGTTGGGCCTCACACTC (5mC at 17): 10100 a.u.
CTCAGTTCCGTGGGCTGGACTCCTGTCCAGCCCACGGAACTGAGACACTC (5mC at 35): 4390 a.u.
CTCAGTTCTGTCGGCTGGACTCCTGTCCAGCCGACAGAACTGAGACACTC (5mC at 12 32): 3770 a.u.
GAGGCCTGTTGAGGTTGGCCTCCTGGCCAACCTCAACAGGCCTCACACTC: 4730 a.u.
GAGGCCTGTTGTAGTTGGCCTCCTGGCCAACTACAACAGGCCTCACACTC: 3730 a.u.
CTCAGTCGTGTGGGCTGGACTCCTGTCCAGCCCACACGACTGAGACACTC (5mC at 7 37): 4370 a.u.
GAGGCCCAACCGCAATAGCCTCCTGGCTATTGCGGTTGGGCCTCACACTC: 9400 a.u.
GAGGCCCAACCGCAACCGCCTCCTGGCGGTTGCGGTTGGGCCTCACACTC: 9750 a.u.
GAGGCCTGTAGTGGTTGGCCTCCTGGCCAACCACTACAGGCCTCACACTC: 4740 a.u.

Repeated from above (study 1):
R24Y: 24.2%
V70S: -0.365%
S150G: 0.21%
I52F: 1.72%
V44N: -0.545%
L91W: -3.88%
